Experimental data from different studies.
A part holds a random share of what one study measured.
UniProt O75676, sequence (whole entry, looked up): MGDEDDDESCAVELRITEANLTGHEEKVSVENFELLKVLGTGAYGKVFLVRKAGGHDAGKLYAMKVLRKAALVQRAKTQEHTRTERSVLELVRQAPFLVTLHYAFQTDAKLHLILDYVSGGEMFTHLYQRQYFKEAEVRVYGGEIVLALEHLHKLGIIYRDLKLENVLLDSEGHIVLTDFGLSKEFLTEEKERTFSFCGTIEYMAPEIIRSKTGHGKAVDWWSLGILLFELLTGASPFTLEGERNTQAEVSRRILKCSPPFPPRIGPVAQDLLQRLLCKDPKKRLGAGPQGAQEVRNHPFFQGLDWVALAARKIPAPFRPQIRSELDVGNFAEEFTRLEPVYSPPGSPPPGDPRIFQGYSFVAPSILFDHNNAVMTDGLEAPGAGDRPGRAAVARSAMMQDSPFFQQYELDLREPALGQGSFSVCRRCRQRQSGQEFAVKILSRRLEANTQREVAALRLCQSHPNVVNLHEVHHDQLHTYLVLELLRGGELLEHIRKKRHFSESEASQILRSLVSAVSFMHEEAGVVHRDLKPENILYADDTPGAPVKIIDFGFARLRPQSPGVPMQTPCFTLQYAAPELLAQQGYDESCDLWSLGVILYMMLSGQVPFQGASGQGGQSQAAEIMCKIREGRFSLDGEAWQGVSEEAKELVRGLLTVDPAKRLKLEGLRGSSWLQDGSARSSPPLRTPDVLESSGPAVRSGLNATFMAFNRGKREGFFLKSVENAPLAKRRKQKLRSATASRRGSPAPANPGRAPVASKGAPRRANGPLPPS
UniProt P30291, sequence (whole entry, looked up): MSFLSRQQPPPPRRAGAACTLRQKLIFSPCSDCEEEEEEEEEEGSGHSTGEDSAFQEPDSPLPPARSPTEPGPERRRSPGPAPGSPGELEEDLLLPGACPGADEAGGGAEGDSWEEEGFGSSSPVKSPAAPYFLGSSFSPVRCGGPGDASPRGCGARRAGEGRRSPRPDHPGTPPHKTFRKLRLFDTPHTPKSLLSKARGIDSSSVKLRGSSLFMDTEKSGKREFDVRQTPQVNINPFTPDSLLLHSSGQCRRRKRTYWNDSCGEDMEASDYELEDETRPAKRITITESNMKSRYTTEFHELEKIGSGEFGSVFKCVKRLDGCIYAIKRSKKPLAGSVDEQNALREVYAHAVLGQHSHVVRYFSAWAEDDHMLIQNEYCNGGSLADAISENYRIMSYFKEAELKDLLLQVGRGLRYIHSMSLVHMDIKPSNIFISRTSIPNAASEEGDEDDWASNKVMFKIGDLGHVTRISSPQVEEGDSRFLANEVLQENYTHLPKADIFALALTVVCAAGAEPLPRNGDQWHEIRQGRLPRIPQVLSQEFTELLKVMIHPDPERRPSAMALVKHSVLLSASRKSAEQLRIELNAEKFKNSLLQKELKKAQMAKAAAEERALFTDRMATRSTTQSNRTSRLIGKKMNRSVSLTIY
UniProt P31751, sequence (whole entry, looked up): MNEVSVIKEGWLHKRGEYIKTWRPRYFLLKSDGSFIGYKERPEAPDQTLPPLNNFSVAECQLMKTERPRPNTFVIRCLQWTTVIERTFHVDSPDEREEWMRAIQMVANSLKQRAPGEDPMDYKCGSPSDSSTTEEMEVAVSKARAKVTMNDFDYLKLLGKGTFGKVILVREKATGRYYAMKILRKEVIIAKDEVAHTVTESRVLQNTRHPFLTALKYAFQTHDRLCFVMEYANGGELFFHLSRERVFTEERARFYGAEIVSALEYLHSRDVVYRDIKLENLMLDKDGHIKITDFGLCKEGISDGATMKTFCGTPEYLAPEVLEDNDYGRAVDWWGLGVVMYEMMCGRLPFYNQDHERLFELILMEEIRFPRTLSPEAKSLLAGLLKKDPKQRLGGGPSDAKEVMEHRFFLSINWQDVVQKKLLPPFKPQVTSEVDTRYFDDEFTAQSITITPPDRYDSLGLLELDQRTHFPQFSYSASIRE
UniProt P48730, sequence (whole entry, looked up): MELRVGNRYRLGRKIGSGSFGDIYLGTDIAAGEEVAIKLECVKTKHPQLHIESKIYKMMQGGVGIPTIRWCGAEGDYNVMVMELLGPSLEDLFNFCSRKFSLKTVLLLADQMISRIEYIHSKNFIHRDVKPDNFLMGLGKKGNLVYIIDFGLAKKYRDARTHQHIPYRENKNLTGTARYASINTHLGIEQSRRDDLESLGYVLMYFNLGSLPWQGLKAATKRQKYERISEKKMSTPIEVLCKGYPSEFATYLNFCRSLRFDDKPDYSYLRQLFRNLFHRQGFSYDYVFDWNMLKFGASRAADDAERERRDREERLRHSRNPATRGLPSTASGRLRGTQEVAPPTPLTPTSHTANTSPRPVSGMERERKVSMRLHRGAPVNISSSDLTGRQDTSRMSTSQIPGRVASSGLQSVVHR
UniProt Q8TF76, sequence (whole entry, looked up): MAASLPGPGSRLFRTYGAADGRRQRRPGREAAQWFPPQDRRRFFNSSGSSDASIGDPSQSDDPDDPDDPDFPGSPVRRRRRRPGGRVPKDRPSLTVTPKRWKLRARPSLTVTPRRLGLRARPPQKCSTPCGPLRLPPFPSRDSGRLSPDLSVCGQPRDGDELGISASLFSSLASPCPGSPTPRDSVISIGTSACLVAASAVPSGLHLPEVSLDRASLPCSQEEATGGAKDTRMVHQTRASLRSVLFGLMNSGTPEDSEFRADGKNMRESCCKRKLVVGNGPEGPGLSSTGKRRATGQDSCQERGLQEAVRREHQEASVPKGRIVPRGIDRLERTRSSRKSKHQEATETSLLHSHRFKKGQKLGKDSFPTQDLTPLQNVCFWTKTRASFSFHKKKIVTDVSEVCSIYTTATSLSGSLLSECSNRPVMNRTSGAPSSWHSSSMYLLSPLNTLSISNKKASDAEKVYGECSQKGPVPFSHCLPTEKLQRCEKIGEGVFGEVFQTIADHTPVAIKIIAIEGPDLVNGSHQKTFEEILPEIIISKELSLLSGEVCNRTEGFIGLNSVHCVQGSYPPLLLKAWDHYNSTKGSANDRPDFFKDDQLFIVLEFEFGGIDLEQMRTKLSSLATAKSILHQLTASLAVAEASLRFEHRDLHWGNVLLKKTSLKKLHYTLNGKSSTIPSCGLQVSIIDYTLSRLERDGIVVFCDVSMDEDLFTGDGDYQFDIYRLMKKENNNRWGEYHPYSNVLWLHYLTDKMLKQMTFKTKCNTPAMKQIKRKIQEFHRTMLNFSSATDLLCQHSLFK
UniProt Q9HBH9, sequence (whole entry, looked up): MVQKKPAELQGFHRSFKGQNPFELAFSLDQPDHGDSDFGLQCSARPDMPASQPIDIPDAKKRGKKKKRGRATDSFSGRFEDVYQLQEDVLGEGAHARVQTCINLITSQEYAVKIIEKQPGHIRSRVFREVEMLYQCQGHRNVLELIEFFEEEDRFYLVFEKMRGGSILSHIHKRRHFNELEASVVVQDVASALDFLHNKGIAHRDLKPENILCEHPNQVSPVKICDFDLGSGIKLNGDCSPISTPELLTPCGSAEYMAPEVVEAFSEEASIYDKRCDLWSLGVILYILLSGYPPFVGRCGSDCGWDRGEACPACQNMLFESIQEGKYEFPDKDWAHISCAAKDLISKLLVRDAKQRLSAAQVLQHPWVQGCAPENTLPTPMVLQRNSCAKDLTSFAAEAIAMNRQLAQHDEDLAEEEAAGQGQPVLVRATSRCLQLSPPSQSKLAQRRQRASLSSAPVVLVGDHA

Study 1
Organism: Sarcocystis neurona
Observed: parasite growth
Tested at: 10 µM
Time: 96 h
Setting: secondary screen
Endpoint: inhibition
Compound = Cc1cc(NS(=O)(=O)c2ccc(N)cc2)no1; result = -11.3%
Compound = CN(C)CCc1c[nH]c2ccc(C[C@H]3COC(=O)N3)cc12; result = -22.9%
Compound = CC(C)[C@H](N)C(=O)OCCOCn1cnc2c(=O)[nH]c(N)nc21; result = -24.1%
Compound = O=[N+]([O-])c1cccc2cn[nH]c12; result = -12%
Compound = CNC(=C[N+](=O)[O-])NCCSCc1csc(CN(C)C)n1; result = -33.2%
Compound = Cc1ccc(Cl)c(Nc2ccccc2C(=O)O)c1Cl; result = -29%
Compound = OCCN1C[C@H](O)[C@@H](O)[C@H](O)[C@H]1CO; result = 0.5%
Compound = CC(COc1ccccc1)NC(C)C(O)c1ccc(O)cc1 (centres unmarked); result = -21.7%

Study 2
Cell line: HaCaT
Tested at: 100 µM
Time: 36 h
Endpoint: viability
SMILES = CCOc1ccc(NC(C)=O)cc1; result = 96%
SMILES = Cc1c(Cl)cccc1Nc1ccccc1C(=O)O; result = 95%
SMILES = Nc1nc(=O)[nH]cc1F; result = 87.6%
SMILES = CCOC(=O)c1c(C)n(C)c2ccc(O)cc12; result = 39.6%
SMILES = CCC(C)(C)c1ccc(CC(C)CN2C[C@@H](C)O[C@@H](C)C2)cc1 (some centres unmarked); result = 5.49%
SMILES = O=C(O)c1ccccc1C(=O)Nc1ccc(S(=O)(=O)Nc2nccs2)cc1; result = 96.1%
SMILES = Cn1c(=O)cc(N2CCC[C@@H](N)C2)n(Cc2cc(F)ccc2C#N)c1=O; result = 98.6%

Study 3
Compound: O=C(NC[C@@H]1[C@H]2CN(C(=O)OCc3cc(C(F)(F)F)cc(C(F)(F)F)c3)C[C@@H]12)c1ccc2[nH]nnc2c1
Observed: cell-free assay
Technique: competition with immobilised ligand
Tested at: 1 µM
Endpoint: remaining binding
target = Ribosomal protein S6 kinase alpha-4, N-terminal kinase domain (RPS6KA4, Homo sapiens, UniProt O75676); result = 100%
target = CSNK1D (Homo sapiens, UniProt P48730); result = 100%
target = WEE1 (Homo sapiens, UniProt P30291); result = 100%
target = MKNK2 (Homo sapiens, UniProt Q9HBH9); result = 90%
target = HASPIN (Homo sapiens, UniProt Q8TF76); result = 84%
target = AKT2 (Homo sapiens, UniProt P31751); result = 100%

Study 4
Target: Serine/threonine-protein kinase Sgk3 (SGK3, Homo sapiens, UniProt Q96BR1)
Observed: enzyme activity
Mode: inhibitor
Tested at: 0.5 µM
Relative to: control
Endpoint: remaining activity
Target sequence (Q96BR1 1-496): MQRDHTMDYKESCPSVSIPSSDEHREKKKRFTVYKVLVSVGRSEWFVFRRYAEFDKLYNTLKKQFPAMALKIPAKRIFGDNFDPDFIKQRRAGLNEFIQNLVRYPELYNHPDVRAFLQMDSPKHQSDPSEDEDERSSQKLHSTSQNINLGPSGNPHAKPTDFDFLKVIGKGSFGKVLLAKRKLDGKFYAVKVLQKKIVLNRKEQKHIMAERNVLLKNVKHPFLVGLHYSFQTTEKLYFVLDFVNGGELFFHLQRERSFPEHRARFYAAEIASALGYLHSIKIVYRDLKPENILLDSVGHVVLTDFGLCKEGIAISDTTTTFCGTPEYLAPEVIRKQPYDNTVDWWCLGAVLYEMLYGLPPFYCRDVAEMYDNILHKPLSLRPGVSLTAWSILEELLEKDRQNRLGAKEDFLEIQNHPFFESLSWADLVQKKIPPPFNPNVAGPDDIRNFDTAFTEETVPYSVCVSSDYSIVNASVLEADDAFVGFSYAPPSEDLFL
SMILES = Cn1sc(=O)n(Cc2ccccc2)c1=O; result = 102%
SMILES = Oc1ccc(-c2nc(-c3ccncc3)c(-c3ccc(F)cc3)[nH]2)cc1; result = 98.4%
SMILES = Cn1c2ccccc2c2c3c(c4c5ccccc5n(CCC#N)c4c21)CNC3=O; result = 112%
SMILES = COc1cc2ncnc(Nc3ccc(Oc4ccccc4)cc3)c2cc1OC; result = 101%
SMILES = O=C(O)c1ccc2c3c1cccc3c(=O)n1c3ccccc3nc21; result = 103%
SMILES = O=S(=O)(c1cccc2cnccc12)N1CCCNCC1; result = 91.6%
SMILES = Cc1nc(-c2ccccc2)c(-c2ccncc2)o1; result = 96.4%
SMILES = COc1ccc(C(=O)Nc2sc3c(c2C(N)=O)CCCC3)cc1OC; result = 103%
SMILES = Nc1ncnc2n[nH]c(Nc3ccc(F)cc3)c12; result = 102%
SMILES = CN(C)c1ccc(C=C2C(=O)Nc3ccccc32)cc1; result = 107%
SMILES = CO[C@H]1C[C@@H]2CC[C@@H](C)[C@@](O)(O2)C(=O)C(=O)N2CCCC[C@H]2C(=O)O[C@H]([C@H](C)C[C@@H]2CC[C@@H](O)[C@H](OC)C2)CC(=O)[C@H](C)/C=C(\C)[C@@H](O)[C@@H](OC)C(=O)[C@H](C)C[C@H](C)/C=C/C=C/C=C/1C; result = 98.1%
SMILES = CC(C)[C@H](CO)Nc1nc(Nc2cc(N)cc(Cl)c2)c2ncn(C(C)C)c2n1; result = 99.9%
SMILES = O=C(Nc1cccc(Nc2cc(Nc3cccc(C(F)(F)F)c3)ncn2)c1)C1CC1; result = 106%
SMILES = Cc1ccc(Nc2nccc(N(C)c3ccc4c(C)n(C)nc4c3)n2)cc1S(N)(=O)=O; result = 97.5%
SMILES = NCCNc1ncc(C(N)=O)c(Nc2cccc(C(F)(F)F)c2)n1; result = 96.1%
SMILES = O=C1NC(=O)C(c2cn(CCCn3ccnc3)c3ccccc23)=C1Nc1ccccc1; result = 89.9%

Single results of other studies
Compound = CC(C)n1cnc(-c2ccc(F)cc2)c1-c1ncc(C(=O)Nc2ccc(N3CCN(C)CC3)cc2)[nH]1; test = phase 2a clinical trial; test system = patients with idiopathic pulmonary fibrosis; conditions = 60 mg once daily; endpoint = patients with Gingivitis TEAE; result = 0%

Repeated from above (study 2):
SMILES = Cc1c(Cl)cccc1Nc1ccccc1C(=O)O; result = 95%
SMILES = Nc1nc(=O)[nH]cc1F; result = 87.6%
SMILES = CCOC(=O)c1c(C)n(C)c2ccc(O)cc12; result = 39.6%
SMILES = CCC(C)(C)c1ccc(CC(C)CN2C[C@@H](C)O[C@@H](C)C2)cc1 (some centres unmarked); result = 5.49%
SMILES = O=C(O)c1ccccc1C(=O)Nc1ccc(S(=O)(=O)Nc2nccs2)cc1; result = 96.1%
SMILES = Cn1c(=O)cc(N2CCC[C@@H](N)C2)n(Cc2cc(F)ccc2C#N)c1=O; result = 98.6%
